# Experimental data gathered from unrelated publications.
# Every numbered part comes from another study and shows a few of its results, in no order. ± gives the spread as reported.
# Sequence of UniProt P07333 (whole entry, looked up): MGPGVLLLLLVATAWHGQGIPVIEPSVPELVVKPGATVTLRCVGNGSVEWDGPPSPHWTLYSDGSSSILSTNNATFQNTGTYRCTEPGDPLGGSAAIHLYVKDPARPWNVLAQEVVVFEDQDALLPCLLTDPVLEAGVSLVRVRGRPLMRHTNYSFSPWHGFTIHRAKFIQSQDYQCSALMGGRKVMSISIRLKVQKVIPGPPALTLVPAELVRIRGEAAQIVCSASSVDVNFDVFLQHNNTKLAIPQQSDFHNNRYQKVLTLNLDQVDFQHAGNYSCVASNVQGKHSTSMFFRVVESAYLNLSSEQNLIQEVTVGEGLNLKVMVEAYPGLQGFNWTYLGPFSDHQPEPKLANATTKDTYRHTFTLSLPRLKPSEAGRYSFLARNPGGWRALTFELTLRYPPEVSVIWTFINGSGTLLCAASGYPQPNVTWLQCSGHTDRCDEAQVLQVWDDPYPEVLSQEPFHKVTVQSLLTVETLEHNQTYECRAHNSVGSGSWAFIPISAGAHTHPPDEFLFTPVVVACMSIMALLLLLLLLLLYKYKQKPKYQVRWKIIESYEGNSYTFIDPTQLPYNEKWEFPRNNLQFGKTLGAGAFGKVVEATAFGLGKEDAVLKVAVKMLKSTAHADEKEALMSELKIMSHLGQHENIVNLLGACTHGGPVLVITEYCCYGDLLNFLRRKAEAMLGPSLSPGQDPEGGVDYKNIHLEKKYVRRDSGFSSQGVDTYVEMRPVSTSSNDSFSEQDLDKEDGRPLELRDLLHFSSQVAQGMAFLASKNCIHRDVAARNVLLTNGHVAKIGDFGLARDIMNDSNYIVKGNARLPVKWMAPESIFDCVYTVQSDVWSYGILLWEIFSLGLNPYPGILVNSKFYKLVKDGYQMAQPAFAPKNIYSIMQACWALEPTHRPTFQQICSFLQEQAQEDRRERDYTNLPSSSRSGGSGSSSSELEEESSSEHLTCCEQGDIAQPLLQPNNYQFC
# Sequence of UniProt Q15303 (whole entry, looked up): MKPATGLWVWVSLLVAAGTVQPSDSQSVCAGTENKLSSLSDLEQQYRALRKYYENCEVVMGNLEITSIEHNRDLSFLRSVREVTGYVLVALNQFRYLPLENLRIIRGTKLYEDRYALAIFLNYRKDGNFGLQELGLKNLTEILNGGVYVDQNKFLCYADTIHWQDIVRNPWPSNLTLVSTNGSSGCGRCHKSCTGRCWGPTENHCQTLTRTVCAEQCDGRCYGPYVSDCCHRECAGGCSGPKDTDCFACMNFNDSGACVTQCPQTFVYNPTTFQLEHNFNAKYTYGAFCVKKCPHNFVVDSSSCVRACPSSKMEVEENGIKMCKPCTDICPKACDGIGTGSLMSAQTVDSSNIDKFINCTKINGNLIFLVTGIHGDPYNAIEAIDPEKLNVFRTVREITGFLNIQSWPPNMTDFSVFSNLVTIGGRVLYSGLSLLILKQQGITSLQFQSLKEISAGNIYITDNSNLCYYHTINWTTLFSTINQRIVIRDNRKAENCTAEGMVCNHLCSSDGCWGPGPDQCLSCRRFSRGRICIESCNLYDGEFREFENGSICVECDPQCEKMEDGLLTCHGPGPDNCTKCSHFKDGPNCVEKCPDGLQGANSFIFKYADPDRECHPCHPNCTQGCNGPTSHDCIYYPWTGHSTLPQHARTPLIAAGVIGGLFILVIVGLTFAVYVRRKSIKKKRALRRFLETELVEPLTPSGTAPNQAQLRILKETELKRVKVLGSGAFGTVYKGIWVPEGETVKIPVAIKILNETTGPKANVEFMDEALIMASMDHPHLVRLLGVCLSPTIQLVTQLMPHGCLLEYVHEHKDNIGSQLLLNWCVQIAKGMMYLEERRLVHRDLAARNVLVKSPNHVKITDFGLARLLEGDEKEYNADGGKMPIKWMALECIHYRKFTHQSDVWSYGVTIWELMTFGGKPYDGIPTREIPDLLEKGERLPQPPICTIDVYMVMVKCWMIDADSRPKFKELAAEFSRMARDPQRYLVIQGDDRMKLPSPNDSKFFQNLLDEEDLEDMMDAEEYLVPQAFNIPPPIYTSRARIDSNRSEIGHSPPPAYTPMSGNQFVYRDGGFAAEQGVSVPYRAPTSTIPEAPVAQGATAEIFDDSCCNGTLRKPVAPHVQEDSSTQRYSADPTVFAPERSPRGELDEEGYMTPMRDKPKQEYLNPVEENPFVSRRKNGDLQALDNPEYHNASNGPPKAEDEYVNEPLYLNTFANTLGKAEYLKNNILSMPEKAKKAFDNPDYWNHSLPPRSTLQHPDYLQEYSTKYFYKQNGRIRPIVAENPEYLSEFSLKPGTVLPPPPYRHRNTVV

# Study 1 — SMILES: O=c1nc(-c2ccccn2)sc2ccccc12; technique: competition with immobilised ligand; concentration: 1 µM
target,assay,remaining binding [%]
"Leukocyte tyrosine kinase receptor (LTK, Homo sapiens, UniProt P29376)",cell-free assay,99
"Cyclin-dependent kinase 11A (CDK11A, Homo sapiens, UniProt Q9UQ88)",binding,94
"Cyclin-dependent kinase-like 2 (CDKL2, Homo sapiens, UniProt Q92772)",binding,76
"Macrophage colony-stimulating factor 1 receptor, autoinhibited (CSF1R, Homo sapiens, UniProt P07333)",cell-free assay,95
"Dual specificity protein kinase CLK2 (CLK2, Homo sapiens, UniProt P49760)",binding,80
"Tyrosine-protein kinase Mer (MERTK, Homo sapiens, UniProt Q12866)",binding,82
"Mitogen-activated protein kinase 10 (MAPK10, Homo sapiens, UniProt P53779)",binding,100
"Serine/threonine-protein kinase Nek11 (NEK11, Homo sapiens, UniProt Q8NG66)",binding,100
"Receptor-type tyrosine-protein kinase FLT3 (FLT3, Homo sapiens, UniProt P36888, D835Y)",binding,100
"Myosin light chain kinase 2, skeletal/cardiac muscle (MYLK2, Homo sapiens, UniProt Q9H1R3)",binding,100
"Epidermal growth factor receptor (EGFR, Homo sapiens, UniProt P00533, L858R/T790M)",cell-free assay,100
"Mast/stem cell growth factor receptor Kit (KIT, Homo sapiens, UniProt P10721)",binding,79
"Serine/threonine-protein kinase LATS2 (LATS2, Homo sapiens, UniProt Q9NRM7)",binding,79
"Serine/threonine-protein kinase NLK (NLK, Homo sapiens, UniProt Q9UBE8)",binding,100
"Membrane-associated tyrosine- and threonine-specific cdc2-inhibitory kinase (PKMYT1, Homo sapiens, UniProt Q99640)",binding,100
"Serine/threonine-protein kinase 25 (STK25, Homo sapiens, UniProt O00506)",binding,100
"Mitogen-activated protein kinase 7 (MAPK7, Homo sapiens, UniProt Q13164)",binding,100
"Phosphatidylinositol 5-phosphate 4-kinase type-2 beta (PIP4K2B, Homo sapiens, UniProt P78356)",cell-free assay,100
"Ribosomal protein S6 kinase beta-1 (RPS6KB1, Homo sapiens, UniProt P23443)",binding,100
"Mitogen-activated protein kinase 9 (MAPK9, Homo sapiens, UniProt P45984)",binding,100
"Mitogen-activated protein kinase 14 (MAPK14, Homo sapiens, UniProt Q16539)",binding,94
"Receptor tyrosine-protein kinase erbB-4 (ERBB4, Homo sapiens, UniProt Q15303)",binding,96
"Ribosomal protein S6 kinase alpha-4, C-terminal kinase domain (RPS6KA4, Homo sapiens, UniProt O75676)",binding,80
"Serine/threonine-protein kinase RIO1 (RIOK1, Homo sapiens, UniProt Q9BRS2)",binding,85
"Leucine-rich repeat serine/threonine-protein kinase 2 (LRRK2, Homo sapiens, UniProt Q5S007, G2019S)",binding,92

# Study 2 — read-out: enzyme activity; mode: inhibitor; concentration: 0.5 µM; reference: control
# Target: Macrophage colony-stimulating factor 1 receptor (CSF1R, Homo sapiens, UniProt P07333)
SMILES,remaining activity [%]
COc1cc2ncnc(N3CCN(C(=O)Nc4ccc(Oc5ccccc5)cc4)CC3)c2cc1OC,67.2
O=c1cc(N2CCOCC2)oc2c1ccc1ccccc12,103
CC(=O)O/N=C1/C(c2c(O)[nH]c3cc(Br)ccc23)=Nc2ccccc21,84
CC(C)[C@H](CO)Nc1nc(Nc2cccc(Cl)c2)c2ncn(C(C)C)c2n1,96.9
O=C1NC(=O)/C(=C/c2ccc3nccnc3c2)S1,110
CCC(=O)Nc1ccc2ncnc(Nc3cccc(Br)c3)c2c1,98.9
CS(=O)(=O)CCNCc1ccc(-c2ccc3ncnc(Nc4ccc(OCc5cccc(F)c5)c(Cl)c4)c3c2)o1,106
COc1ccc(-c2cnc3c(-c4ccsc4)cnn3c2)cc1,53.6
C[S+]([O-])c1ccc(-c2nc(-c3ccncc3)c(-c3ccc(F)cc3)[nH]2)cc1 (stereo not drawn),95.5
CCN1/C(=C/C(C)=O)Sc2ccc(OC)cc21,93.8
COc1cc2ncc(-c3ccccc3)nc2cc1OC,88.2
CC(C)c1nn(-c2c(Cl)cccc2Cl)c2nc(Cc3ccc(OCCO)cc3)[nH]c(=O)c12,94.6
Nc1[nH]nc2nnc(-c3c(-c4ccccc4)nn4ccccc34)cc12,96.8
CCOc1cc2ncnc(Nc3cccc(Br)c3)c2cc1OCC,87.6
Cn1cnc2cc3c(Nc4cccc(Br)c4)ncnc3cc21,94.4
CN(C)CCCn1cc(C2=C(c3c[nH]c4ccccc34)C(=O)NC2=O)c2ccccc21,76.7
COc1ccc(Cl)cc1NC(=O)Nc1cc(C)nc2ccccc12,94.8
COc1cc2ncnc(Nc3ccc(OCc4ccccc4)cc3)c2cc1OC,97.8
Cn1cc(/C=C2\C(=O)Nc3ccc(S(N)(=O)=O)cc32)c2ccccc21,82.5
O=C(Nc1ccc(Cl)cc1)c1ccccc1NCc1ccncc1,18.4

# Study 3 — read-out: ATPase activity; concentration: concentration not given; setting: with minus without ssDNA
# Target: DNA polymerase theta, helicase domain (POLQ, Homo sapiens, UniProt O75417)
# Sequence of UniProt O75417 (whole entry, looked up): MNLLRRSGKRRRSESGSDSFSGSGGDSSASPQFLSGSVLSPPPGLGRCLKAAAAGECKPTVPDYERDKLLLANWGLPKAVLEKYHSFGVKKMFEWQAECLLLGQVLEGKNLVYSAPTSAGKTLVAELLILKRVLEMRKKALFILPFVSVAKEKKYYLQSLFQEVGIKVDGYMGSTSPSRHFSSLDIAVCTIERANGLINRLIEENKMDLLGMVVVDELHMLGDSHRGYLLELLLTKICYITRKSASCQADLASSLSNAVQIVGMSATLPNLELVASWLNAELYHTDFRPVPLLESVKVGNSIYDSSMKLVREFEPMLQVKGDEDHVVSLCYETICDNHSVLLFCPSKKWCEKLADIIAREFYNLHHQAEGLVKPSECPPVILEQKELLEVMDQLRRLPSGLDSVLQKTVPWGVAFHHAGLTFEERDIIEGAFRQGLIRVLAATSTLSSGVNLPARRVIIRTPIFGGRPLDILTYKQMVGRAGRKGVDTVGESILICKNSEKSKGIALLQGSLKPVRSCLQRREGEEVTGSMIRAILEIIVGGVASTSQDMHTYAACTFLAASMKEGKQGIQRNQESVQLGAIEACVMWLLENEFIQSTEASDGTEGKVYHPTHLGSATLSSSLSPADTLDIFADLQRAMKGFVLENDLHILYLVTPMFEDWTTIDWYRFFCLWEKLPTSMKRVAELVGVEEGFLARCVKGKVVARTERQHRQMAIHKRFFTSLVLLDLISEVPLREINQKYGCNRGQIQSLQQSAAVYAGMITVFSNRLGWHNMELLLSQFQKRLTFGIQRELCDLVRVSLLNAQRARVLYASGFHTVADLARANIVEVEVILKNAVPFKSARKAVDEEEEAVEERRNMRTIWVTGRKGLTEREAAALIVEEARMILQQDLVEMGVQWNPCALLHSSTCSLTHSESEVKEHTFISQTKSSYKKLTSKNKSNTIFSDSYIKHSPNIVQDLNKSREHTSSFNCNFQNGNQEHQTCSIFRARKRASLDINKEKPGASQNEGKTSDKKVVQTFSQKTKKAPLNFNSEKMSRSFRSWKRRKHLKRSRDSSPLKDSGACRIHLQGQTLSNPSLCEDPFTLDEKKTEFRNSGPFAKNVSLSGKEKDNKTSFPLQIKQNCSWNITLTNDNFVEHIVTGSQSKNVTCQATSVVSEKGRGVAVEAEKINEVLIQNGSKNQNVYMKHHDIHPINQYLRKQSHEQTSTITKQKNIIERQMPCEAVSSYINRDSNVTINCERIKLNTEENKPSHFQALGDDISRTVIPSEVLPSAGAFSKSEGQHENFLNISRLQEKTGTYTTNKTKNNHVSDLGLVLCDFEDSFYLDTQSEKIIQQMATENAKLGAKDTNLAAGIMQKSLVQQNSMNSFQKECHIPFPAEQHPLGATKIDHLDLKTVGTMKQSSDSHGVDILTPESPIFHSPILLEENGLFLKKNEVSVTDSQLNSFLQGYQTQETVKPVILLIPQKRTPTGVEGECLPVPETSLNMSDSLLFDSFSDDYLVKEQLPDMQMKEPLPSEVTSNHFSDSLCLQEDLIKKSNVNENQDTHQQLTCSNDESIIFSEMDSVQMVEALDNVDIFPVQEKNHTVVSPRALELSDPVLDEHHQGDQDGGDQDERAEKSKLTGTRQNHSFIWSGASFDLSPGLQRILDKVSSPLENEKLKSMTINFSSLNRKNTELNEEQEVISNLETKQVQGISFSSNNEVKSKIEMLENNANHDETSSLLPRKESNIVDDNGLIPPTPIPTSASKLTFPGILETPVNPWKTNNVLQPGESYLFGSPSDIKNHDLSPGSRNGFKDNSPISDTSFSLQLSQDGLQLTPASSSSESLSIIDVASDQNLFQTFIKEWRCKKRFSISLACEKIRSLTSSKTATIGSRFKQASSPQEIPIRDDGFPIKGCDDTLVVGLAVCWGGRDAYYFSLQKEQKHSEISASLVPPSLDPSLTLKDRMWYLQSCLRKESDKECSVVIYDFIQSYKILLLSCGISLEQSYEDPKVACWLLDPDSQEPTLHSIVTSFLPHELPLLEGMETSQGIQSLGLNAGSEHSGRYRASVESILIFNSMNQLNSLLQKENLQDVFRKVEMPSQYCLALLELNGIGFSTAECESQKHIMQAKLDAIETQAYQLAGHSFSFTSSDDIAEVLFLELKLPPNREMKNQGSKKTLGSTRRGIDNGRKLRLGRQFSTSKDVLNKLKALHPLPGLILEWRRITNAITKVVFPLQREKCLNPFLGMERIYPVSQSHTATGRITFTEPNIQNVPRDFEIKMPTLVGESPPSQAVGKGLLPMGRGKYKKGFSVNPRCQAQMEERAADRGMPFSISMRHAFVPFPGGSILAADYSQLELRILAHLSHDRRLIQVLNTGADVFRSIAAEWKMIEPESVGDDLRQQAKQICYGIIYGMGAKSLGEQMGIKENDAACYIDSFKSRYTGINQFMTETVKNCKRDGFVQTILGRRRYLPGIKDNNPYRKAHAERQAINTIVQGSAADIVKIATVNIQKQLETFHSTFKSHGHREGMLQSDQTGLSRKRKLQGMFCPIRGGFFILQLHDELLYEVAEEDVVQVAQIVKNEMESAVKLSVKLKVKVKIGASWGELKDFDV
Compound,activity difference
CC(=O)Oc1cccc2c1C(=O)c1c(OC(C)=O)cc(C(=O)O)cc1C2=O,1.57%
CCCCCCCC/C=C\CCCCCCCC(=O)O,1.57%
C[C@H]1[C@H](C)CC[C@]2(C(=O)O)CC[C@]3(C)C(=CC[C@@H]4[C@@]5(C)C[C@@H](O)[C@H](O)[C@@](C)(CO)[C@@H]5CC[C@]43C)[C@H]12,0.957%
O=C(O)[C@]1(Cc2cccc(Nc3nccs3)n2)CC[C@@H](Oc2cccc(Cl)c2F)CC1,4.53%
Cc1ccc(C2C=C(c3ccccc3)N=C3N=C(NS(C)(=O)=O)NN32)cc1 (stereo not drawn),0.782%
O=C(CSc1ncc(S(=O)(=O)c2ccc(Br)cc2)c(=O)[nH]1)NCc1ccc(Cl)cc1,11.9%
CC1=Nc2cc(C(=O)NCCc3ccc(Cl)cc3)ccc2Sc2ccc(C)cc21,2.38%
O=C(O)C1=CC(=C(c2ccc(O)c(C(=O)O)c2)c2ccc(O)c(C(=O)O)c2)C=CC1=O,5.17%

# Study 4 — technique: ITC; concentration: concentration not given
# Target: Bromodomain-containing protein 4, BD1 (BRD4, Homo sapiens, UniProt O60885)
Structure (SMILES),binding stoichiometry
Cc1cnc(Nc2ccc(N3CCN(C)CC3)cc2)nc1Nc1cccc(S(=O)(=O)NC(C)(C)C)c1,1.16 ± 0.01
CC(C)CCN1c2nc(Nc3cc(F)c(O)c(F)c3)ncc2N(C)C(=O)C1C (stereo not drawn),0.965 ± 0.02
CC[C@@H]1C(=O)N(C)c2cnc(Nc3ccc(C(=O)N[C@H]4CC[C@H](N5CCN(CC6CC6)CC5)CC4)cc3OC)nc2N1C(C)C,1.02 ± 0.04
Cc1cnc(Nc2ccc(OCCN3CCCC3)cc2)nc1Nc1cccc(S(=O)(=O)NC(C)(C)C)c1,1.03 ± 0.04

# A few entries again (study 4):
Structure (SMILES),binding stoichiometry
Cc1cnc(Nc2ccc(N3CCN(C)CC3)cc2)nc1Nc1cccc(S(=O)(=O)NC(C)(C)C)c1,1.16 ± 0.01
CC(C)CCN1c2nc(Nc3cc(F)c(O)c(F)c3)ncc2N(C)C(=O)C1C (stereo not drawn),0.965 ± 0.02
CC[C@@H]1C(=O)N(C)c2cnc(Nc3ccc(C(=O)N[C@H]4CC[C@H](N5CCN(CC6CC6)CC5)CC4)cc3OC)nc2N1C(C)C,1.02 ± 0.04
